# Results gathered from unrelated publications.
# Each numbered part is a random draw from the data of one study; scales do not carry over between parts. Changes are numbered by the printed parent chain.

# Series 1 — method: universal PBM; form: double-stranded DNA, one strand shown; matrix: in vitro; tested at: not given; reading: higher = stronger binding
# Target: Sal-like protein 4, full length isoform B (SALL4, Homo sapiens, UniProt Q9UJQ4-2, residues 1-616)
# Notes: 8-mer, flanks averaged, mean of replicates
# Target sequence (chain): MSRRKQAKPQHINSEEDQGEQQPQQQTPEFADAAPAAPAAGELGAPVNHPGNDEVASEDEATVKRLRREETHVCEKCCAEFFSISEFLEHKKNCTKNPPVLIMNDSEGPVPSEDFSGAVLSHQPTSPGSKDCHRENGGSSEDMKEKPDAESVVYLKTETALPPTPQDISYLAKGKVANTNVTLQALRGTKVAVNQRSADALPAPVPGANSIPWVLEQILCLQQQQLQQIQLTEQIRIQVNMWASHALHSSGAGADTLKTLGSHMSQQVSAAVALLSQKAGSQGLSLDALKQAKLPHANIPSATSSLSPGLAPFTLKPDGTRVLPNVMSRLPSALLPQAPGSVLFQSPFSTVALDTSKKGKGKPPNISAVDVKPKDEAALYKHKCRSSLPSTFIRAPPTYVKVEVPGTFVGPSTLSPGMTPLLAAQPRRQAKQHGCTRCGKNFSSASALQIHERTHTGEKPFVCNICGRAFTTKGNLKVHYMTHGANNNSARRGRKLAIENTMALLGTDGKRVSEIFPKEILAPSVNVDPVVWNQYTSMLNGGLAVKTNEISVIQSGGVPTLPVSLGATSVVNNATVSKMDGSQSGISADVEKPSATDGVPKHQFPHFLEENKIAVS
Strand,E-score
ACCCGACC,-0.201
CAGTTACA,0.148
GCCACCGC,-0.29
GTAAGATA,0.25
AACCTCTT,0.182
AAAAGTTG,0.0761
GGACACTA,-0.133
CAAAAGCG,-0.0863
CGACGCCG,-0.325
ACACTGGA,0.0226
GCCTCCTA,-0.19
CACAAGTC,0.0279
CCGTCACG,-0.14

# Series 2 — method: DHFR PCA, deep sequencing; matrix: yeast; with: (+)-ABA 58 µM; baseline: wild-type fitted maximum; reading: higher = stronger binding
# Target: ABI1, truncated, D143A, DHFR fusion (Arabidopsis thaliana)
# Notes: methotrexate growth selection, single substitutions
# Parent: PYL1, truncated, DHFR fusion (Arabidopsis thaliana); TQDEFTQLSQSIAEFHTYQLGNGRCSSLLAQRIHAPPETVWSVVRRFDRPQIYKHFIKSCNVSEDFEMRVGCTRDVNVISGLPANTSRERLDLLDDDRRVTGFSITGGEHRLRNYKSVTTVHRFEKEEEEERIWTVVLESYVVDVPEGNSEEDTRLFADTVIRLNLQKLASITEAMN
Change,relative binding score [%]
L166F,26.9
R113P,3.46
E127K,97.2
V43W,7.31
L91W,14.5
D159F,-18.6
S27C,39.4
A170K,91.5
E152L,75.4
R32C,77.9
V70S,61
Y115V,-0.615
R155T,82.5
T17P,16.1
D92S,34.5
R24P,6.94
R46H,43.4
T160Y,74.6
T73F,87.6
V44N,-30.1
Q10S,92.7
H122M,19.5
I52F,76.2
E128Y,90.7
S150G,65

# Series 3 — method: RNA Bind-n-Seq; form: RNA; matrix: in vitro; tested at: 100 nM; baseline: input RNA pool; reading: higher = stronger binding
# Target: RING finger protein unkempt homolog, zinc fingers 1-6, SBP tag (UNK, Homo sapiens, UniProt Q9C0B0, residues 30-357)
# UniProt Q9C0B0, sequence (30-357, looked up): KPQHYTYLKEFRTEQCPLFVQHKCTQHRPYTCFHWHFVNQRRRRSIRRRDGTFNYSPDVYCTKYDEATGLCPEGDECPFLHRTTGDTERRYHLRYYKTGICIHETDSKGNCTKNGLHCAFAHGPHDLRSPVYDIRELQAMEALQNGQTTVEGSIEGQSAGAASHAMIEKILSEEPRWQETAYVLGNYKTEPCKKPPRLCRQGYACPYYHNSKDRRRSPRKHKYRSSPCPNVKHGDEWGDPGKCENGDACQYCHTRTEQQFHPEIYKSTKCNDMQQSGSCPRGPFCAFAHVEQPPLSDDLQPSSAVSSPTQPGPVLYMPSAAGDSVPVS
# Notes: RNA with constant flanks, vertebrate orthologous sites, ends assumed
# Constant ends, left off below: GGGAGUUCUACAGUCCGACGAUC … CAACAGAGGAUUGAGCAUCA
Strand,bound/input enrichment
AGCAGCUCAAGGAUUCAGAACUGGUUUUGCAAAUGUCCCAGGCAGAUAUGGAACAAAUGCUCGUGGUCAGCCCCGACCAUAAUAAACACCAUUAUUUAUUAUACUUAAGGGUAUUGACUU,0.344 ratio
GGUUUUUUUUUUUUAGAUAUCAUUGCCCAGUGCCUAAGAUCUUUUAUGUUCAGCUGACUGUAGGAAAUAAUGAAUUUUUUGGUGAAGGAAAGACUCGACAAGCUGCAAGACACAACGCUG,1.52 ratio
UCCUCAACUUGUUCUAGCUUGUGAUCCCUCAAAGUUGGGUCAUAUGUUAGUGCUAGAUACUAGAAAUUUUCACUUUUCCACUGAUCAGAGAGACAGACAUUAAAAACAAAAAUAGAAGAA,3.02 ratio
AGCAACUCAGGGGUUCAGGACUGGUUAUACCAACAUGCCAAGUAGAUUUGGAACCAGUAAUAACAGAAUUGGACAACCAAGACCAUGAUGUACAGUAACUUGAUUUUUAUGAAGCAUAUU,0.381 ratio
AAAAUUCAGUAGAAUUACACUAAUACUGAAGUUACCGUUGAAAAGAUAUCCAAGUGUGUGUUGAUAGUUACUAAAAGAAGUAUAGCUGUUAUUGCCUUGUAUUUAUAUCCCUUGUUUCAG,0.484 ratio
GUUAAUGAUCAUAUCAUAUGUAGAGAAAAAAUUUUCAUUGUCCCCAUUGUGAAAUUUAUUUAGAAUCUUCAUUUUUCUCAUUCAGGCUCACUGUAUUAGUUAUUUUUAGUCCAUAAUUAA,2.29 ratio
AAGAAAUGCUGGCUGCAAACCCUCAGGAUCGUCCAGAUGCUUUUGAACUAGAACUCAGAUUAGUACAAAUUGCGUUUAAAGAUAGCAGCUGGGAAACGUGACGCAUAUUGUUUGCAAAUA,0.773 ratio

# Series 4 — method: RNA Bind-n-Seq; form: RNA; matrix: in vitro; tested at: 200 nM; notes: whole 134-nt RNA, ends assumed; with: 150 mM LiCl; baseline: input library; reading: higher = stronger binding; each molecule: 7-deaza-guanosine replaces G
# Target: Fragile X messenger ribonucleoprotein 1, C-terminal low-complexity region (Fmr1, Mus musculus, UniProt P35922)
# Constant ends, left off below: GGGAGUUCUACAGUCCGACGAUC … UGGAAUUCUCGGGUGUCAAGG
Strand,log2 enrichment
CGGGAGGUGGAUUUUGUUUAUUUUUUUAGCUCAUUUCCAGGGGUGGGAAUUUUUUUUUAAUAUGUGUCAUGAAUAAAGUUGUUUUUGAAA,0.711
CACAGACAACACGCACCCACACAGACACAGAGGGAAGGGGUUGGGAUGGGGACAGGGGGCACAGCAGGGCGGGGUAGGACCCCAGCCCCU,0.603
CCUGUGCUACACAUCGUAUGUACCGAAUCGGGGUUUUUUUGGGGAGGGGAAAAAAAGGGGAAAGUAUUAUGUUACGCCGUUCGGAUCUGC,-0.637
UGGGAGGUGGAUAUUGUUUAUUUUUUUAGCUCAUUUCCAGGGGUGGGAAUUUUUUUUUAAUAUGUGUCAUGAAUAAAGUUGUUUUUGAAA,-0.455
CCAGGAAGUAAAAACAAAUGGAAAUGCUUCGGAUAGUGGCAGGGGUGGGGGUUGCUAAGGAAAGGGUGGGAUGGGAGUGGGUAAAGAGUU,0.935
CACAGACAACACGCACCCACACAGACACAGAGGGAAGGGGUUGGGAUGGGGACAGGGAAAACAGCAGGGCGGGGUAGGACCCCAGCCCCU,-0.0782
GUCCUGUGCUACACAUCGUAUGUACCGAAUCGGGGAAAAGGGGAAAAGGGGAAAAGGGAAAGUAUUAUGUUACGCCGUUCGGAUCUGCAC,0.758

# Series 5 — method: protein binding microarray; form: double-stranded DNA, one strand shown; matrix: in vitro; tested at: not given; baseline: not given; reading: higher = stronger binding
# Target: Histone acetyltransferase KAT6A, winged helix 2, GST fusion (KAT6A, Homo sapiens, UniProt Q92794, residues 85-181)
# Notes: 8-mer, flanks averaged, mean of 2 arrays, mostly near background
# Residues (chain): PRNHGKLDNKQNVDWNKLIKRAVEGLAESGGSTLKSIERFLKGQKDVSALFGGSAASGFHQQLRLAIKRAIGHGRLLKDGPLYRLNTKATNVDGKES
Strand,E-score
GTAGCTAC,-0.131
GTAATGAC,-0.0858
CAGGTTCA,0.00579
ATCTGACG,-0.0787
CACCACAC,-0.0413
GGACGTGA,-0.195
TGTCCACA,0.00999
ACGCTACT,0.127
CTCACTAC,0.0287
CAGAAACC,0.111
GGTGCTAC,-0.14
GATGGCCA,-0.0699
AACCTATT,-0.116
CCGGGTCC,0.0658
ACGACTGA,-0.0134
ACAGATTA,-0.132
CTGCCCAA,-0.108
CCGATACG,-0.0978
CTCGGTCA,-0.0427
TATGCATA,-0.144
CATTATCG,-0.0856
CAGTTGAC,-0.00469
CACGGCGG,0.206
ATACTATG,0.0401
AGGTTGTA,-0.0859

# Series 6 — method: RNA Bind-n-Seq; form: RNA; matrix: in vitro; tested at: 365 nM; baseline: no-protein control; reading: higher = stronger binding
# Target: RNA binding protein fox-1 homolog 2, RRM domain, GST-SBP tag (RBFOX2, Homo sapiens, UniProt O43251-10, residues 100-194)
# Notes: natural RNA segment, single round, ends assumed
# Constant ends, left off below: GGGAGUUCUACAGUCCGACGAUC … UGGAAUUCUCGGGUGCCAA
# Construct (chain): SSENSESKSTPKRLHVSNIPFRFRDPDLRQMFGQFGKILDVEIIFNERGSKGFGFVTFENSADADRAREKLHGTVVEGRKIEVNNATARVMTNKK
Strand,RBNS enrichment (R)
UUUUUCAACCUUUUCCAUUUGCUGAGUGAAGAUGGUCACUAACUCUAUGCUGCAAUAACGGGAGAGAUCCUGUCCAAGGAAGUCUAACGUCUAUAAAAAUGGAGUCACUG,0.261
GACUGGCCCCAUUGCUUGAGCCCCUGUGCGACCCUUGACCUCCAGCCUUAGUUCUCCUGGAAGCUGCCAACUGCUUACGGGAGUGGGUAGAUUGGGCGUCUGAGACCCAG,0.599
CCUUAGCAGCCCUGGAUGGUGGCCAGAAAUAAAGGGACCAGCCCUUCAUGGGUGGUGACGUGGUAGUCACUUGUAAGGGGAACAGAAACAUUUUUGUUCUUAUGGGGUGA,0.481
AUCUCAUAUUAGGAUUUUCUGUCCUUAAUUUUUUGAGCAAAAUCUGGAAAAUGUGAAAGCAUAUUUAGAUUUUAUAUACUAUCUGAAAUGUGAUUUGUUAAGAUUCUUAA,0.3
UUUAAAGAGGCAUCUAGGGAAUUGUCAGGCACCCUACAGGAAGGCCUGCCAUGCUGUGGCCAACUGUUUCACUGGAGCAAGAAAGAGAUCUCAUAGGACGGAGGGGGAAA,1.13
GACAAUGCAUGGGGUGGUCUUUAUUUUUCCCUUUCAAAUAAAACACUAGUCAGGUACCGUUUUAUCCCAGUCGUACUCUUCCAGGUUUGGAAGACCCAGAGAGGCCAAGA,10.1
AUCACAAAAUACUGCUUCAAGAUUUAAUUUUAAAUCUGCUAAUUUAAGGGAUAUUGGGAAAAGUUUUGGUGUGUUUCUGUUGAUUUCUUUUUUGUAUGCUGUGAUAAAAG,1.19
AAAACCAAGUAUCACACUUUAAUGUACAUGGGCCGCACCAUAAUGAGAUGUGAGCCUUGUGCAUGUGGGGGAGGAGGGAGAGAGAUGUACUUUUUAAAUCAUGUUCCCCC,1.33
UCCACCCACCUUGGCCUCCCAAAGUGCUAGUAUUAUGGGCGUGAACCACCAUGCCCAGCCGAAAAGCUUUUGAGGGGCUGACUUCAAUCCAUGUAGGAAAGUAAAAUGGA,0.372
CAAUUAGGGAAAAAUGAGCGGCAAAGGAGCUUUCCCCUUCAGCUGCACUCUAAAGGGGAACAUUUUAAGGAAGUACUAGCAGCUUUGACUCUUCUAUGCUCCUGUUGGUU,0.349
GCCCAGCAGGAGUCACUGUUGGCCUCUGGACACUCAUCGGCCUUGGGCAAGUGGUUCUCAGCCAGGUUUCCGAUUGUCGAUUCAAGGAAGCAAAAGUAAUUUUUCUUGAC,0.347
CCCUAAGGAUUUUCCUUUAAUUUCUCUGGAGUAAUACUGUACCAUACUGGUCUUUGCUUUUAGUAAUAAAACAUCAAAUUAGGUUUGGAGGGAACUUUGAUCUUCCUAAG,0.252

# Repeated from above (series 5):
Strand,E-score
TGTCCACA,0.00999
ACGCTACT,0.127
CTCACTAC,0.0287
CAGAAACC,0.111
GGTGCTAC,-0.14
GATGGCCA,-0.0699
AACCTATT,-0.116
